# Experimental data pooled from the literature.
# Every numbered part comes from another study and shows a few of its results, in no order.
# Sequence of UniProt P07333 (whole entry, looked up): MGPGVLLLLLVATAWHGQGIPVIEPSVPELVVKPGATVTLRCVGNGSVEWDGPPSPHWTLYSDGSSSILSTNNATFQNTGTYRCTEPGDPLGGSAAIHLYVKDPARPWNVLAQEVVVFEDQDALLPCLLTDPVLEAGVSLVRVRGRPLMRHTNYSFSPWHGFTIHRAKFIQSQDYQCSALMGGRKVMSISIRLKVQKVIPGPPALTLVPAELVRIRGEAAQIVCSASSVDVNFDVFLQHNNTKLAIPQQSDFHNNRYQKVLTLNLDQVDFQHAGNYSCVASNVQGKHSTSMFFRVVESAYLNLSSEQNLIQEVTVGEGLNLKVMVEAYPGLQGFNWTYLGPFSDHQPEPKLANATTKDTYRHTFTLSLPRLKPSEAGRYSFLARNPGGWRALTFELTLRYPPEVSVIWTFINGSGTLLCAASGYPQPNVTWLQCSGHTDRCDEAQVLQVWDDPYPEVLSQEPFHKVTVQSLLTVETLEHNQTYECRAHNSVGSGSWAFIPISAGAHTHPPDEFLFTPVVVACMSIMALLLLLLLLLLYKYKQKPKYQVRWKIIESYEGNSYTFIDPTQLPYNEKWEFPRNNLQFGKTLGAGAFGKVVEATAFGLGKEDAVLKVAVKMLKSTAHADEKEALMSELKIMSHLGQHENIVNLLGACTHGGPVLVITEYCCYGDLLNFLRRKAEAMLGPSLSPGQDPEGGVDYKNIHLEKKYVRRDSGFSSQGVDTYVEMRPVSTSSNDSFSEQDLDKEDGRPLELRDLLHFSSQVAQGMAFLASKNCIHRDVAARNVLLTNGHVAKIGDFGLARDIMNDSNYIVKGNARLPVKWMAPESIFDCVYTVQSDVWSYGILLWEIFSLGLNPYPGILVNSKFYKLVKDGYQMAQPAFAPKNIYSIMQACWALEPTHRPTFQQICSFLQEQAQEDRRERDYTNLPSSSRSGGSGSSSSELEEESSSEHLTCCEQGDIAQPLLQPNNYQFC
# Sequence of UniProt P68400 (whole entry, looked up): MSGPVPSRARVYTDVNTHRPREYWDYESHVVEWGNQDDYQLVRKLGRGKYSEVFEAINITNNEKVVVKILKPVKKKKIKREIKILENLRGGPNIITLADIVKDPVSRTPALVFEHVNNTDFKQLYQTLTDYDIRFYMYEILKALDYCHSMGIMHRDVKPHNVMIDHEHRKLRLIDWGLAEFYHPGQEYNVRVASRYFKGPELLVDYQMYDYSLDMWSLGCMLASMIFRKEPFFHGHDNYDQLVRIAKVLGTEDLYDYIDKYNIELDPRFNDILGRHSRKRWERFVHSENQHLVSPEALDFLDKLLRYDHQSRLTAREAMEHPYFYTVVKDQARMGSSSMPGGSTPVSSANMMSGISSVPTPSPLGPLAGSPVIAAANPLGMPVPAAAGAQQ
# Sequence of UniProt O75460 (whole entry, looked up): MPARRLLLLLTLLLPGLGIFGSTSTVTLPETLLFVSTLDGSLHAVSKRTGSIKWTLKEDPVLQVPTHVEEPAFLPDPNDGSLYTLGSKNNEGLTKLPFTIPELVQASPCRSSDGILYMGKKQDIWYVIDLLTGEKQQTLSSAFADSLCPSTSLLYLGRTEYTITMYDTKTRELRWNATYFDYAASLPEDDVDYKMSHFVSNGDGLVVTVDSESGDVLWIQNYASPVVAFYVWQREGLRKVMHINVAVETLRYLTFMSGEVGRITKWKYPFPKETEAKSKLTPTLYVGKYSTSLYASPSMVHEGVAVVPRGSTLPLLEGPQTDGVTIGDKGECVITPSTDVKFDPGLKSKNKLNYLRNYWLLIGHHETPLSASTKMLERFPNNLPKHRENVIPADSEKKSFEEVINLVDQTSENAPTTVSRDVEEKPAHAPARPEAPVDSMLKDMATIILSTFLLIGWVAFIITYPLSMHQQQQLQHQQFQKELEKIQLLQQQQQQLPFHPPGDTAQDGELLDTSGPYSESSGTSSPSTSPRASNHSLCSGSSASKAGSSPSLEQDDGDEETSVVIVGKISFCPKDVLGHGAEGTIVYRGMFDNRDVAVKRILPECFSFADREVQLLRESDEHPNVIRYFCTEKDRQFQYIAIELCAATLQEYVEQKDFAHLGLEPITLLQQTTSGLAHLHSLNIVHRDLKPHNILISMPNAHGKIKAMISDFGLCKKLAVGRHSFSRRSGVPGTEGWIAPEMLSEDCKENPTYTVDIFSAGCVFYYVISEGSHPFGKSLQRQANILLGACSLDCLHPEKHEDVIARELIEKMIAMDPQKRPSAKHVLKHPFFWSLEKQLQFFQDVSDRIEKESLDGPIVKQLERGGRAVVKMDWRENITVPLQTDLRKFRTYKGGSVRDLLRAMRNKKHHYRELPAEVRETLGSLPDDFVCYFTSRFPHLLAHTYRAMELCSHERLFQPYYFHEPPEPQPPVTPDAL
# Sequence of UniProt Q00534 (whole entry, looked up): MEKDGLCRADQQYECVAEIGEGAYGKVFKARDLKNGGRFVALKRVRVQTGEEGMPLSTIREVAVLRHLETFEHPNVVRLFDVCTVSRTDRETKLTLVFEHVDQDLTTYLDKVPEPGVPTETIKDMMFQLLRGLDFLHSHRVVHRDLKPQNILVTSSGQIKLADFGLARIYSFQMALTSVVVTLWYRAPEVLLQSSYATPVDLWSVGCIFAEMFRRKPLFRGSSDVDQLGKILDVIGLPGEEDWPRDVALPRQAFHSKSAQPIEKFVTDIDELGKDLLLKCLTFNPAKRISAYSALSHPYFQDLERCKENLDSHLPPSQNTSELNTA
# Sequence of UniProt Q04759 (whole entry, looked up): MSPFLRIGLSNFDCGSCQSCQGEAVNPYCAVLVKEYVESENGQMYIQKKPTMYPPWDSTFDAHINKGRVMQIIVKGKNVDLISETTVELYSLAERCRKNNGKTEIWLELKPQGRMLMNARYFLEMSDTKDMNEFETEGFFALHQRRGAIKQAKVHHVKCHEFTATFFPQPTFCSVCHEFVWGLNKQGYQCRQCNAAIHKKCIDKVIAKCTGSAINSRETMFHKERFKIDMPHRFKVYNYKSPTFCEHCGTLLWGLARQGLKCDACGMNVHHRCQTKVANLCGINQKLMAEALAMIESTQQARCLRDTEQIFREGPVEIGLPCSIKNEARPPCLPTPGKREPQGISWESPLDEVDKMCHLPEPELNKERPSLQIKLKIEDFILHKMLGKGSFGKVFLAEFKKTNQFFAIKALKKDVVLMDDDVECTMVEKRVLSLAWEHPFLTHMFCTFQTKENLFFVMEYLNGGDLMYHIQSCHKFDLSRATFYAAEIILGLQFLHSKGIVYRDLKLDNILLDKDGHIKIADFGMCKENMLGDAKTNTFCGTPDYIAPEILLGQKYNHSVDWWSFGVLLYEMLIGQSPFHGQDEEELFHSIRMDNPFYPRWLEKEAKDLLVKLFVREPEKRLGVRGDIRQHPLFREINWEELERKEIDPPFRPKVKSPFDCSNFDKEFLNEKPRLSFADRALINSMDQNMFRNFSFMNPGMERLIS
# Sequence of UniProt P15056 (whole entry, looked up): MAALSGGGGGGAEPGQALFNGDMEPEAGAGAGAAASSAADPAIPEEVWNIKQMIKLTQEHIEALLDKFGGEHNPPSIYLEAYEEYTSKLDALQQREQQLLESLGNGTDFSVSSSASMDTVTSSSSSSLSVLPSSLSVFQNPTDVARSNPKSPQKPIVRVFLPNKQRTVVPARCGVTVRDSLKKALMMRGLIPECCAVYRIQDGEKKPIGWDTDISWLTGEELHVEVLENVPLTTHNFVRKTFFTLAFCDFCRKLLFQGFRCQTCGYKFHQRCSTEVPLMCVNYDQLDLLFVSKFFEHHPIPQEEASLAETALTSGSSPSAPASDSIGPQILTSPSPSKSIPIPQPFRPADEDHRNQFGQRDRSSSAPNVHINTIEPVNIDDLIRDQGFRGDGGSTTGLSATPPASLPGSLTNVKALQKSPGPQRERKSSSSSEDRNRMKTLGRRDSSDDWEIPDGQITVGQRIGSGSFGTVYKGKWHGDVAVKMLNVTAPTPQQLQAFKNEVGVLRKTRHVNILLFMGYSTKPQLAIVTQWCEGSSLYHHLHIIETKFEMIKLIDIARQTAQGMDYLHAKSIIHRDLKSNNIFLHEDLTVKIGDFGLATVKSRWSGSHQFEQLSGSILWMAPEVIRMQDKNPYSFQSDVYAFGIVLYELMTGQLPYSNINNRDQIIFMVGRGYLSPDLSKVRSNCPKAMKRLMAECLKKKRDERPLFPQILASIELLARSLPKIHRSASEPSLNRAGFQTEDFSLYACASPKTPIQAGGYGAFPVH
# Sequence of UniProt Q8N752 (whole entry, looked up): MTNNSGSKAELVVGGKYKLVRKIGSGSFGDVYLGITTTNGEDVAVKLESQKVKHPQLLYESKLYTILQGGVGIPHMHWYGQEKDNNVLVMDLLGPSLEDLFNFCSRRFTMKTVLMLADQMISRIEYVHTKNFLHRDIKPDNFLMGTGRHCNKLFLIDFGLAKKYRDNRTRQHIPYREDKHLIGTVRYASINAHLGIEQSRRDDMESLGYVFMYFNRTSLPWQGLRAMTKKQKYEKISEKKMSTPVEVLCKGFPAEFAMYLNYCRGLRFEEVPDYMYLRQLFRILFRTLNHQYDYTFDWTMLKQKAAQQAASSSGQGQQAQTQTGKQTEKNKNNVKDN

# Set 1
# Host: mouse
# Medium: microsomes or S9
# Concentration: 2 µM
# Time: 0.5 h
SMILES,remaining compound [%]
COc1cc(/C=C/C(=O)N2CCC=CC2=O)cc(OC)c1OC,0.0459
CC(Nc1ncc(Cl)cn1)C(C)n1cncn1 (stereo not drawn),86.1
O=C(CN(CCc1ccccc1)S(=O)(=O)c1ccc(Cl)cc1)Nc1ccc2c(c1)OCCO2,2.39
CC(C)=CCN1CCN(c2nc3ccccc3s2)CC1CCO (stereo not drawn),0.00328
Cc1cccc(-c2noc(-c3cn(CC(=O)Nc4cccc(C)c4C)c4nc(C)ccc4c3=O)n2)c1,26.6
Cc1nc(C2(NS(=O)(=O)c3c(C)c(C)c(C)c(C)c3C)CCCC2)no1,0.446
CCC(CC)C(=O)N1CCN(c2cc(-n3nc(C)cc3C)ncn2)CC1,0.0793

# Set 2
# Target: Beta-1 adrenergic receptor (ADRB1, Homo sapiens, UniProt P08588)
# Sequence of UniProt P08588 (whole entry, looked up): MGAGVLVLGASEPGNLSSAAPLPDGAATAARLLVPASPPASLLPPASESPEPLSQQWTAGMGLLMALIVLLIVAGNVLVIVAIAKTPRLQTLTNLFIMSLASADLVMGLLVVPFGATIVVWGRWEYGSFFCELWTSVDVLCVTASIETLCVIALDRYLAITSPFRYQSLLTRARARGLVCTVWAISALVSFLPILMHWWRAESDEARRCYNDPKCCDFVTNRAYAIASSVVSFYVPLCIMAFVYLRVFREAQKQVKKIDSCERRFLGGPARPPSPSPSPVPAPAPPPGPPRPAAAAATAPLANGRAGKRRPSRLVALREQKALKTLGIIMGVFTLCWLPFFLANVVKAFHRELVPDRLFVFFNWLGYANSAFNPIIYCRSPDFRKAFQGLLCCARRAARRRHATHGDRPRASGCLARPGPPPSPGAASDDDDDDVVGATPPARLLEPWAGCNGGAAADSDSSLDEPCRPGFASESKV
# Mode: agonist
Structure (SMILES),EC50 [µM]
Fc1ccc(-c2c[nH]c([C@@H]3COCCN3Cc3cnc4ccccc4c3)n2)c(F)c1,≥ 100
COCc1cc(CC2(NCc3ccc(N(C)C)cc3)COC2)no1,≥ 100
Cc1ncc(-c2cc(C(=O)N3CCCCCCC3)c3cc(F)ccc3n2)cn1,3.16
CCc1sc(-c2cc3ccc(O)cc3oc2=O)nc1-c1cc(C)ccc1C,≥ 100
Cn1cc(-c2cnc(Nc3ccc(F)cc3)c3c2CCO3)cn1,≥ 100
O=C1OC2(c3ccc(O)cc3Oc3cc(O)ccc32)c2cccc(N=C=S)c21,22.4
Cc1cc(C(=O)Nc2ccc3ccccc3n2)c2cnn(C(C)C)c2n1,11.2
CCn1c(=O)cc(N2CCN(c3cccc(Cl)c3)CC2)[nH]c1=O,≥ 100
O=C(Nc1cccc(C(F)(F)F)c1)N[C@H]1CO[C@H]2[C@@H]1OC[C@@H]2Nc1nccc(C2CCCC2)n1,≥ 100
Cc1ccc2c(CC(=O)N3CCOc4ccc(CN5CCOCC5)cc4C3)cc(=O)oc2c1,≥ 100
CN(C)c1cccc(C(=O)Nc2ncc(-c3cnn(C)c3)c3c2OCC3)c1,≥ 100
Cc1ccsc1-c1n[nH]c2ncc(-c3cnn(C)c3C)nc12,≥ 100
CC(O)CNCc1c(Cl)cccc1Cl (stereo not drawn),≥ 100
COCCN1CCNc2nc(COc3cccc(N4CCOCC4)c3)n(Cc3ccccc3)c2C1=O,≥ 100
c1ccc2c(Oc3nc(Nc4ccc(N5CCOCC5)cc4)c4ncn(C5CCCCC5)c4n3)cccc2c1,≥ 100

# Set 3
# SMILES: COc1cc2c(cc1OC)-c1[nH]nc(Nc3cccc(F)c3)c1C2
# Read-out: enzyme activity
# Mode: inhibitor
# Concentration: 0.5 µM
# Baseline: control
target,remaining activity
"Serine/threonine-protein kinase B-raf (BRAF, Homo sapiens, UniProt P15056)",93.8%
"Serine/threonine-protein kinase 3 (STK3, Homo sapiens, UniProt Q13188)",93%
"Cyclin-dependent kinase 6, with cyclin D1 (CDK6, Homo sapiens, UniProt Q00534)",92.9%
"Protein-tyrosine kinase 6 (PTK6, Homo sapiens, UniProt Q13882)",81%
"Calcium/calmodulin-dependent protein kinase type II subunit alpha (CAMK2A, Homo sapiens, UniProt Q9UQM7)",95.6%

# Set 4
# Structure (SMILES): CCCCN(CCCC)C(=O)CN1C[C@H](c2cc(OC)c3c(c2)OCO3)[C@@H](C(=O)O)[C@@H]1CC(C)(C)CCC
# Read-out: cell-free assay
# Technique: competition with immobilised ligand
# Concentration: 1 µM
target,remaining binding [%]
"Serine/threonine-protein kinase Nek3 (NEK3, Homo sapiens, UniProt P51956)",99.1
"Casein kinase I isoform alpha-like (CSNK1A1L, Homo sapiens, UniProt Q8N752)",100
"Macrophage colony-stimulating factor 1 receptor, autoinhibited (CSF1R, Homo sapiens, UniProt P07333)",43
"Serine/threonine-protein kinase/endoribonuclease IRE1 (ERN1, Homo sapiens, UniProt O75460)",70.6
"Casein kinase II subunit alpha (CSNK2A1, Homo sapiens, UniProt P68400)",68.5
"Muscle, skeletal receptor tyrosine-protein kinase (MUSK, Homo sapiens, UniProt O15146)",100
"Dual specificity protein kinase CLK2 (CLK2, Homo sapiens, UniProt P49760)",100
"Phosphatidylinositol 4,5-bisphosphate 3-kinase catalytic subunit alpha isoform (PIK3CA, Homo sapiens, UniProt P42336)",89.7
"Protein kinase C theta type (PRKCQ, Homo sapiens, UniProt Q04759)",100
"Serine/threonine-protein kinase Nek2 (NEK2, Homo sapiens, UniProt P51955)",100
"Macrophage colony-stimulating factor 1 receptor (CSF1R, Homo sapiens, UniProt P07333)",100
"Rho-associated protein kinase 1 (ROCK1, Homo sapiens, UniProt Q13464)",90.4
"Activin receptor type-1B (ACVR1B, Homo sapiens, UniProt P36896)",96.4
"Serine/threonine-protein kinase 38 (STK38, Homo sapiens, UniProt Q15208)",80.7
"Serine/threonine-protein kinase LATS1 (LATS1, Homo sapiens, UniProt O95835)",100

# Repeated from above (set 2):
Structure (SMILES),EC50 [µM]
O=C(Nc1cccc(C(F)(F)F)c1)N[C@H]1CO[C@H]2[C@@H]1OC[C@@H]2Nc1nccc(C2CCCC2)n1,≥ 100
Cc1ccc2c(CC(=O)N3CCOc4ccc(CN5CCOCC5)cc4C3)cc(=O)oc2c1,≥ 100
CN(C)c1cccc(C(=O)Nc2ncc(-c3cnn(C)c3)c3c2OCC3)c1,≥ 100
Cc1ccsc1-c1n[nH]c2ncc(-c3cnn(C)c3C)nc12,≥ 100
